Measured values pooled from the literature.
Numbered parts are unrelated; each lists some results of a single study.

Series 1 — read-out: enzyme activity; concentration: 10 µM
Target: Replicase polyprotein 1ab, 3C-like proteinase (rep, Middle East respiratory syndrome-related coronavirus, UniProt K9N7C7)
With `O=c1sn(-c2cccc3ccccc23)c(=O)n1Cc1ccccc1` the inhibition was 22%.
`CN(C)C(=S)SSC(=S)N(C)C` has an inhibition of 48%.
For `O=C1C2CC=CCC2C(=O)N1SC(Cl)(Cl)Cl` (centres unmarked), the inhibition was 5%.
With `COC(=O)C1=C(C)NC(C)=C(C(=O)OC)C1c1ccccc1[N+](=O)[O-]` the inhibition was 15%.
For `NC(CO)C(=O)NNCc1ccc(O)c(O)c1O` (centres unmarked), the inhibition was 9%.

Series 2 — technique: protein-binding microarray; molecule type: double-stranded DNA, one strand shown; medium: in vitro; concentration: 250 nM; setting: 60-bp whole probe; added: salmon DNA 0.4 mg/ml; reference: random background probes; direction: higher = stronger binding; constant ends, left off below: GCCTAGCAC … GTCTTGATTCGCTTGACGCTGCTG
Target: Interferon regulatory factor 5, full length, phosphomimetic (IRF5, Homo sapiens, UniProt Q13568-2, residues 1-514, K96S/S451D/S453D/S456D/S462D)
For `GACGGTTTCGGGACTGGGGTCGTGCTA`, the log fluorescence was 4.83 z-score.
The log fluorescence of `GACTATATCAGTATCGAGACGTGCTAG` is reported as 3.01 z-score.
`GACGGTCTCCTATTGCTGACGTGCTAG` gave a log fluorescence of -0.215 z-score.
With `GACGGTATCGTTATCCTGACGTGCTAG` the log fluorescence was 2.03 z-score.
`GACGATCTCCTACTGCTGACGTGCTAG` has a log fluorescence of -0.0243 z-score.
`TCAATGCTGGCTTTTATACTGTGCTAG` gave a log fluorescence of -0.333 z-score.
`GACGAACTGAGTCTCGAGAGGTGCTAG` has a log fluorescence of -0.32 z-score.
For `TTAGGACTGCTACTGCTTTCGTGCTAG`, the log fluorescence was 0.799 z-score.

Series 3 — read-out: enzyme activity; mode: inhibitor; concentration: 20 µM
Target: Replicase polyprotein 1ab, polymerase (rep, Severe acute respiratory syndrome coronavirus 2, UniProt P0DTD1)
`COc1ccc(N(C(=O)Oc2c(C)cccc2C)c2ccnc(Nc3ccc(N4CCN(C)CC4)cc3)n2)c(OC)c1` gave an inhibition of -6.23%.
`CC(C)(Sc1ccc(CCN(CCCCC2CCCCC2)C(=O)NC2CCCCC2)cc1)C(=O)O` gave an inhibition of -0.32%.
The inhibition of `CN1C(=O)CC(C)(c2ccccc2)C1=O` (centres unmarked) is reported as -14.1%.
The inhibition of `COc1cc(C[C@@H]2NCCc3cc(O)c(O)cc32)cc(OC)c1OC` is reported as 2.53%.
`CCc1c(C(=O)C(N)=O)c2c(OCC(=O)O)cccc2n1Cc1ccccc1` gave an inhibition of -0.88%.
The inhibition of `N[C@@H](CCC(=O)N[C@@H](CS)C(=O)NCC(=O)O)C(=O)O` is reported as -0.86%.
`COc1cccc(CN(C(=O)CC(C)(C)C)[C@H]2C[C@@H](C(=O)N3CCNCC3)N(Cc3ccc4c(c3)OCO4)C2)c1` has an inhibition of -1.41%.
The inhibition of `CC[C@H]1OC(=O)[C@H](C)[C@@H](O[C@H]2C[C@@](C)(OC)[C@@H](O)[C@H](C)O2)[C@H](C)[C@@H](O[C@@H]2O[C@H](C)C[C@H](N(C)C)[C@H]2O)[C@](C)(OC)C[C@@H](C)C(=O)[C@H](C)[C@@H](O)[C@]1(C)O` is reported as -21.7%.
With `NCCCC(N)(C(=O)O)C(F)F` (centres unmarked) the inhibition was -3.19%.
For `CC(C)NCC(O)c1cc(O)cc(O)c1` (centres unmarked), the inhibition was 23.5%.
The inhibition of `C[C@]12N[C@H](Cc3ccccc31)c1ccccc12` is reported as 4.07%.
With `NC(=O)N1c2ccccc2CC(=O)c2ccccc21` the inhibition was -9.43%.
For `C[C@H]1O[C@@H](O[C@H]2[C@@H](O)C[C@H](O[C@H]3[C@@H](O)C[C@H](O[C@H]4CC[C@@]5(C)[C@H](CC[C@@H]6[C@@H]5C[C@@H](O)[C@]5(C)[C@@H](C7=CC(=O)OC7)CC[C@]65O)C4)O[C@@H]3C)O[C@@H]2C)C[C@H](O)[C@@H]1O`, the inhibition was 15.1%.
The inhibition of `CC12CCC(C(=O)N(CCCCN3CCN(c4ccccn4)CC3)C1=O)C2(C)C` (centres unmarked) is reported as 7.7%.
`N[C@H](C(=O)O)c1ccc(O)c(C(=O)O)c1` has an inhibition of -10.5%.
`N[C@H](C(=O)O)[C@H](O)c1ccc(O)c(O)c1` has an inhibition of 0.36%.
`Cc1nc2c(O)cccc2c(=O)[nH]1` gave an inhibition of -4.52%.

Series 4 — technique: universal PBM; molecule type: double-stranded DNA, one strand shown; medium: in vitro; concentration: not given; direction: higher = stronger binding
Target: Sal-like protein 4, full length isoform B (SALL4, Homo sapiens, UniProt Q9UJQ4-2, residues 1-616)
Setting: 8-mer, flanks averaged, mean of replicates
`CTAAGCAC` gave an E-score of -0.112.
The E-score of `CCGAGCTA` is reported as -0.105.
`GCCAGGTA` has an E-score of -0.242.
`GACACCAA` has an E-score of 0.157.
`CGCCAAAG` has an E-score of -0.236.
`AACCCTCG` has an E-score of -0.141.
`ATAGTGTC` gave an E-score of 0.0617.
`TCAGTGCA` has an E-score of -0.0547.

Excerpt of the above (series 2):
`GACGATCTCCTACTGCTGACGTGCTAG` has a log fluorescence of -0.0243 z-score.
For `GACGGTTTCGGGACTGGGGTCGTGCTA`, the log fluorescence was 4.83 z-score.
